# Experimental data collected from several papers.
# ± gives the spread as reported.
# YAP1 WW2 domain: Transcriptional coactivator YAP1, WW2 domain (YAP1, Homo sapiens, UniProt P46937)
# CFTR del508-508: Cystic fibrosis transmembrane conductance regulator (CFTR, Homo sapiens, UniProt P13569, del508-508)
# YAP1 WW1 domain: Transcriptional coactivator YAP1, WW1 domain (YAP1, Homo sapiens, UniProt P46937)
# Kelch domain-containing protein 2: Kelch domain-containing protein 2 (UniProt Q9Y2U9)
# KCNT1: Potassium channel subfamily T member 1 (KCNT1, Homo sapiens, UniProt Q5JUK3)
Molecule,target,assay,test system,conditions,scale,measurement,value
CSCC[C@H](NC(=O)[C@@H]1CCCN1C(=O)[C@@H](NC(=O)[C@H](Cc1ccc(O)cc1)NC(=O)[C@H](C)NC(=O)[C@@H]1CCCN1C(=O)[C@@H]1CCCN1C(=O)[C@@H]1CCCN1C(=O)[C@H](CO)NC(=O)[C@H](Cc1c[nH]cn1)NC(=O)CN)[C@@H](C)O)C(=O)N[C@@H](CO)C(=O)O,YAP1 WW2 domain,"binding, ITC",,"pH 7.0, 25 °C, WW2 domain",,ΔH,-4.23 ± 0.45 kcal/mol
CCCCCCCC/C=C\CCCCCCCC(=O)OC[C@H](COP(=O)(O)OCC(O)CO)OC(=O)CCCCCCC/C=C\CCCCCCCC (some centres unmarked),"kcsA (Streptomyces lividans, UniProt P0A334)","channel opening, activator, contact bubble bilayer",POPC bilayer,"25 wt%, pH 4 inside, 7.5 outside, 100 mV",,open probability,17%
Cc1cc(C)c2cc(C#N)c(N3CCN(C(=O)c4ccncc4)CC3)nc2c1,CFTR del508-508,"ΔF508-CFTR correction, corrector",FRT,"up to 25 µM, 37 °C, with: forskolin 20 µM + genistein 50 µM",,EC50,inactive
CC(C)C[C@H](NC(=O)[C@@H](NC(=O)[C@@H](N)[C@@H](C)O)C(C)C)C(=O)N1CCC[C@H]1C(=O)N1CCC[C@H]1C(=O)N1CCC[C@H]1C(=O)N[C@@H](C)C(=O)N[C@@H](Cc1ccc(O)cc1)C(=O)N[C@@H](CCCNC(=N)N)C(=O)N[C@@H](Cc1c[nH]cn1)C(=O)N[C@@H](CCCNC(=N)N)C(=O)N[C@@H](CC(N)=O)C(=O)O,YAP1 WW2 domain,"binding, ITC",,"pH 7.0, 25 °C, WW2 domain",,ΔH,-10.1 ± 0.32 kcal/mol
GSRPQRLLWQTAVRHITEQRFIHGH,"Calmodulin-1 (Calm1, Rattus norvegicus, UniProt P0DP29, D21A/D57A)","Ca2+ dissociation, stopped-flow quin-2 fluorescence",peptide,"2 µM, pH 7.4, 22 °C, with: Ca2+-calmodulin complex",,koff1,4.18 ± 1.04 s⁻¹
N=C(N)NC(=O)c1nc(Cl)c(N)nc1N,"Degenerin mec-4 (mec-4, Caenorhabditis elegans, UniProt P24612, A713T)","ion current, two-electrode voltage clamp",Xenopus oocytes coexpressing MEC-2,"30 µM, -85 mV","relative to: uninjected oocytes, positive inhibition, negative potentiation",current change,6.71 µA
COc1ccc(Cl)cc1Nc1nc2c(s1)CCCc1nc(NC(=O)C(C)C)sc1-2,CFTR del508-508,"iodide influx, corrector, YFP halide quenching",FRT cells expressing YFP-H148Q/I152L,"16 to 20 h, 37 °C, genistein 50 µM, with: forskolin 20 µM",,Vmax,329 µM/s
CC(C)C[C@H](NC(=O)[C@@H](NC(=O)[C@@H](N)[C@@H](C)O)C(C)C)C(=O)N1CCC[C@H]1C(=O)N1CCC[C@H]1C(=O)N1CCC[C@H]1C(=O)N1CCC[C@H]1C(=O)N[C@@H](Cc1ccc(O)cc1)C(=O)N[C@@H](CCCNC(=N)N)C(=O)N[C@@H](Cc1c[nH]cn1)C(=O)N[C@@H](CCCNC(=N)N)C(=O)N[C@@H](CC(N)=O)C(=O)O,YAP1 WW1 domain,"binding, ITC",,"pH 7.0, 25 °C, WW1 domain",,TΔS,-7.19 ± 0.55 kcal/mol
SSDHLFLFGG,Kelch domain-containing protein 2,native mass spectrometry,"peptide, 200 mM ammonium acetate","20 µM Kelch domain-containing protein 2, pH 7",relative to: total Kelch domain-containing protein 2 signal,fraction of protein bound,1.8%
Cl.N=C(N)N,phenol,spectral titration,,,,association constant,970000 M⁻¹
O=C(O)/C(O)=C/C=C\F,"4-oxalocrotonate tautomerase (Leptothrix cholodnii, UniProt B1Y2E4)","enzyme activity, covalent irreversible inhibitor",,"500 µM, 16 h, pH 7.3",,remaining activity,30%
CC[C@H](C)[C@H](NC(=O)[C@@H]1CCCN1C(=O)[C@@H]1CCCN1C(=O)[C@@H]1CCCN1C(=O)[C@@H](NC(=O)[C@H](CC(N)=O)NC(=O)[C@@H](N)Cc1ccccc1)[C@@H](C)CC)C(=O)N[C@@H](Cc1ccc(O)cc1)C(=O)N[C@H](C(=O)N[C@@H](CO)C(=O)N[C@@H](CCCNC(=N)N)C(=O)N[C@@H](C)C(=O)O)[C@@H](C)O,YAP1 WW1 domain,"binding, ITC",,"pH 7.0, 25 °C, WW1 domain",,TΔS,-0.74 ± 0.4 kcal/mol
Brc1ccc(SSc2ccc(Br)cc2)cc1,tubulin,"colchicine binding, [3H]colchicine binding",,"5 µM, 10 min, 37 °C, with: [3H]colchicine 5.0 µM",,inhibition,11 ± 0.3%
IINFEKE,"ERAP1 (Homo sapiens, UniProt Q9NZ08, F803R)",substrate,peptide,"pH 8.0, 27 °C, mutant F803R, with: L-AMC, peptide activator 100 µM",,K1/2 of L-AMC,0.35 ± 0.08 mM
CC(C)C[C@H](NC(=O)[C@@H](NC(=O)[C@@H](N)[C@@H](C)O)C(C)C)C(=O)N1CCC[C@H]1C(=O)N1CCC[C@H]1C(=O)N1CCC[C@H]1C(=O)N1CCC[C@H]1C(=O)N[C@@H](Cc1ccc(O)cc1)C(=O)N[C@@H](CCCNC(=N)N)C(=O)N[C@@H](C)C(=O)N[C@@H](CCCNC(=N)N)C(=O)N[C@@H](CC(N)=O)C(=O)O,YAP1 WW1 domain,"binding, ITC",,"pH 7.0, 25 °C, WW1 domain",,ΔH,-14.6 ± 0.35 kcal/mol
C=CC(=O)Nc1ccccc1Nc1nc(Nc2ccc(N3CCN(C)CC3)cc2)ncc1Cl,"AAK1 (Homo sapiens, UniProt Q2M2I8)","covalent ligand, chemoproteomic competition",NCI-H23 (KRAS G12C),"1 µM, 2 h, with: compound-desthiobiotin probe 2 µM",,probe labelling,> 50%
O=c1c(-c2ccc(O)cc2)coc2cc(O)cc(O)c12,"CNGA1 (Bos taurus, UniProt Q00194)","ion current, inside-out patch clamp",Xenopus oocytes,"100 µM, closed channels, with: erbstatin 100 µM",,inhibition,~80%
CCCCCC[N+](CCCCCC)(CCCCCC)CCCCCC,"Htr3a (Mus musculus, UniProt P23979)","5-HT-induced current, inhibitor, two-electrode voltage clamp",Xenopus oocytes,,,IC100,500 µM
COc1ccccc1C(=O)NCCCNc1nc2cc(C)cc(C)c2cc1C#N,CFTR del508-508,"ΔF508-CFTR correction, corrector",FRT,"up to 25 µM, 37 °C, with: forskolin 20 µM + genistein 50 µM",,EC50,inactive
O=S(=O)(c1ccc(Cl)cc1)N1CC(c2nc(-c3ccsc3)no2)C1,KCNT1,"Tl+ flux, inhibitor",HEK293 expressing KCNT1,30 µM,,activity class,inactive
IINFEKL,"ERAP1 (Homo sapiens, UniProt Q9NZ08, L733R)",substrate,peptide,"pH 8.0, 27 °C, mutant L733R, with: L-AMC, peptide activator 100 µM",,K1/2 of L-AMC,0.22 ± 0.04 mM
C[C@]12CC[C@H](O)CC1=CC[C@@H]1[C@@H]2CC[C@]2(C)C(c3cccnc3)=CC[C@@H]12,"CYP17A1 (Homo sapiens, UniProt P05093)","dissociation, jump-dilution",,with: allopregnanolone 20 µM,,koff,0.000155 s⁻¹
LIIGGG,Kelch domain-containing protein 2,native mass spectrometry,"peptide, 200 mM ammonium acetate","20 µM Kelch domain-containing protein 2, pH 7",relative to: total Kelch domain-containing protein 2 signal,fraction of protein bound,3%
CCc1c(Cl)c(O)c(Cl)c(O)c1C(=O)O[C@H]1[C@H](O)[C@H](OC)[C@H](OC/C2=C\C=C\C[C@H](O)/C(C)=C/[C@H](CC)[C@@H](O[C@@H]3OC(C)(C)[C@@H](OC(=O)C(C)C)[C@H](O)[C@@H]3O)/C(C)=C/C(C)=C/C[C@@H]([C@@H](C)O)OC2=O)O[C@@H]1C,"Organic solute transporter subunit alpha, with OSTβ (SLC51A, Homo sapiens, UniProt Q86UW1)","DHEAS uptake, inhibitor",Flp-In-293 expressing OSTα/β,"100 µM, 30 s, preincubation and co-incubation, with: DHEAS 20 µM",,inhibition,> 80%
CC1(C)Cc2cc(Cl)cc(C3CC3CN)c2O1 (racemic),"HTR2A (Homo sapiens, UniProt P28223)","agonist, FLIPR calcium flux",HEK293,up to 10 µM,,EC50,inactive
CCOc1ccccc1S(=O)(=O)N1CC(c2nnc(-c3ccc(F)cc3)[nH]2)C1,KCNT1,"Tl+ flux, activator",HEK293 expressing KCNT1,30 µM,relative to: loxapine maximum response,efficacy,37%
